Published values of several laboratories.
Each numbered part is a random draw from the data of one study; scales do not carry over between parts. Changes are numbered by the printed parent chain.

Series 1
Target: ABI1, truncated, D143A, DHFR fusion (Arabidopsis thaliana)
Method: DHFR PCA, deep sequencing
Sample: yeast
Notes: methotrexate growth selection, single substitutions
Added: (+)-ABA 200 µM
Relative to: wild-type fitted maximum
Reading: higher = stronger binding
Starting sequence: PYL1, truncated, DHFR fusion (Arabidopsis thaliana); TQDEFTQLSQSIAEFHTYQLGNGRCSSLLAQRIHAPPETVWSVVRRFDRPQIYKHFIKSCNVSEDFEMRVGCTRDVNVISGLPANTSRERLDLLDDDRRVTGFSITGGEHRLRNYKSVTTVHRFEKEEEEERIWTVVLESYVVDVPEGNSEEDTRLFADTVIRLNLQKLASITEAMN; partner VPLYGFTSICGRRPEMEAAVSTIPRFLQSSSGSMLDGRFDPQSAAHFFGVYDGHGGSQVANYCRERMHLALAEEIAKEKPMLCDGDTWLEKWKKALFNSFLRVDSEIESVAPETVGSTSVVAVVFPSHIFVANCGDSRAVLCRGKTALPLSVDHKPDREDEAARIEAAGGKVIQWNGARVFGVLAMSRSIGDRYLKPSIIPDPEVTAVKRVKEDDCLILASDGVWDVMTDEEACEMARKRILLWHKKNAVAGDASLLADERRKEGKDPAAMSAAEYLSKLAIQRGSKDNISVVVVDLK
`F103L`: “relative binding score” 22.7%.
`S27T`: “relative binding score” 69%.
Under “relative binding score”, `D92G` is recorded as 40.3%.
For `S140E`, “relative binding score” read -4.21%.
Under “relative binding score”, `V145E` is recorded as 26.7%.
`L91E`: “relative binding score” -5.15%.
For `Y53C`, “relative binding score” read 45%.
For `E109H`, “relative binding score” read 98%.
For `Q10R`, “relative binding score” read 98%.
For `D3P`, “relative binding score” read 109%.
`T119K` — result for “relative binding score”: 33.4%.
Under “relative binding score”, `S104Y` is recorded as 37.3%.

Series 2
Target: CCNB1, cyclin fold, Cln2 fusion (human)
Method: yeast growth competition, sequencing
Sample: yeast
Notes: weak parent motif
Relative to: not given
Reading: higher = stronger binding
Starting sequence: WEE1 docking peptide (human); HKTFRKLRLFDTP
`R5A L7A` — result for “normalised enrichment score”: 0.772.
Under “normalised enrichment score”, `T12Y` is recorded as 0.478.
Under “normalised enrichment score”, `K6N` is recorded as 0.503.
Under “normalised enrichment score”, `L7P` is recorded as -0.0494.
`F4E` — result for “normalised enrichment score”: 0.215.
`F4T` — result for “normalised enrichment score”: 0.808.
For `D11E`, “normalised enrichment score” read 0.235.
`R8V`: “normalised enrichment score” 0.0614.
`H1I`: “normalised enrichment score” 1.34.
`T3S` — result for “normalised enrichment score”: -0.793.
`P13A`: “normalised enrichment score” 0.575.
`H1E`: “normalised enrichment score” 0.193.
For `R5W`, “normalised enrichment score” read 0.375.
Under “normalised enrichment score”, `R8A` is recorded as -0.543.
`L9D`: “normalised enrichment score” 0.315.
`R8Y`: “normalised enrichment score” 1.38.

Series 3
Molecule: PhoQ, residues 284 288 289 292 302 303 NLGVHL
Method: Sort-seq
Refers to: YFP reporter
Sample: E. coli
Notes: PhoQ-PhoP variant library
Added: 10 µM Mg2+
Relative to: high Mg2+ state
Reading: higher = stronger signaling
The fold induction was 0.159 (PhoP, residues 12 14 15 18 19 QYCSL (Escherichia coli, UniProt P23836)).
PhoP, residues 12 14 15 18 19 STHWV (Escherichia coli, UniProt P23836) — fold induction: 6.56.
For PhoP, residues 12 14 15 18 19 SHWTV (Escherichia coli, UniProt P23836): fold induction read 20.

Series 4
Target: RNA binding protein fox-1 homolog 2, RRM domain, GST-SBP tag (RBFOX2, Homo sapiens, UniProt O43251-10, residues 100-194)
Method: RNA Bind-n-Seq
Molecule type: RNA
Sample: in vitro
Concentration: 365 nM
Notes: natural RNA segment, single round, ends assumed
Relative to: no-protein control
Reading: higher = stronger binding
Target sequence (chain): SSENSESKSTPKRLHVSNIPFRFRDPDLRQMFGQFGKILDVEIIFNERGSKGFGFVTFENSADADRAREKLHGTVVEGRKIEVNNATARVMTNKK
Under “RBNS enrichment (R)”, `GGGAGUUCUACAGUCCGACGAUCAUCCAGGUUCCAGAGAGAACAUUAGAUCUUAGCUCUUGACAAAACGGAUGGCAGAUACUGGCCUUUGAAACUCUGUUGAUUCAUCUCUUCUAAUCGGUCCCCAAGGAGAAUGGAAUUCUCGGGUGCCAA` is recorded as 0.365.
For `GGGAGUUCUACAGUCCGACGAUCUGCCCUGGAUGUGGGGACCAAGGUACAAUCUAACCAUGGGCCCCCACAAGGCUUCCUGAAAUCAAAUGUUAGGUGUUGAGAGUAGCUGCAGUCUCGGGAUAACUUGUGAGUGGAAUUCUCGGGUGCCAA`, “RBNS enrichment (R)” read 0.543.
`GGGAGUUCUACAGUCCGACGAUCCUGAUCUGUUGAUAAGGCACUAUACACCAUGCUGGUGUGUUCUGUAGCCUUGUGCCCAUUAGGUAACUGAACAAUGAUUCAGCUCUUAGAAUACCUAGGAAGACAGCAAGUGGAAUUCUCGGGUGCCAA` — result for “RBNS enrichment (R)”: 0.245.
`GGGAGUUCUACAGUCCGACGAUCGAGUCUGUCACACUCUCUUGGGCCAGCCCCAGCACCUCAUGCAGAGGGUGGGGUACUGGAGUUAGAUCUCUAAGCCCCUCCUGGAACCCUCAUUUUCCCCACUCUCAAUGUGGAAUUCUCGGGUGCCAA` — result for “RBNS enrichment (R)”: 1.79.
Under “RBNS enrichment (R)”, `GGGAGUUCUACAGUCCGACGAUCUAACUACAGCACAGGCUACCUUGCUGAUGUGUCCAUGUCACUGGUCUCCCUUUUAGCUAAAAUCUGAGAGUAGAAUAACCUGAUCUUUGAGGCCUCUUCCAAUGUUAGUCUGGAAUUCUCGGGUGCCAA` is recorded as 0.318.
`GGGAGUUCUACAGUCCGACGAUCCAUGUGGCUUUAUGUGAGGGGACUGAAUGCAGACACACCAUAGCCCCCUUCUACUACUUUCCCUCUCGCCCUGCCACCUAGUUCCACAUGGAACCAACAAGUUGAGUGCAUGGAAUUCUCGGGUGCCAA`: “RBNS enrichment (R)” 0.824.
For `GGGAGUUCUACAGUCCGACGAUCGCUGUUAAAUUUCUUCAAGUCCAGAGAAGCAAAUCUUAGUGCGGGCAGACCGAGUUAGUGUUUGAUGCGACUAUCUCCAUCCUUAGUAUGGAUGUGGUCAGUUCUGCACAUGGAAUUCUCGGGUGCCAA`, “RBNS enrichment (R)” read 0.502.
`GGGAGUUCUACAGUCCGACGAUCGUCAAGGGCAAGCUGGAGUUAAUAAUCUAUAUUUAUUUGACUCAGCACUGUUUUCAUCACAACUUGUUUUCCCAGCAUCAUGUAGUGCAUUUAGUUUUGUCUUUCUCAGGUGGAAUUCUCGGGUGCCAA` — result for “RBNS enrichment (R)”: 1.53.
For `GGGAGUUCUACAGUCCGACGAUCGAGAUCUCUGAAGUGGGAUUGUCUUAUUUUCCUUAGUACAGCCCACUGCCAAAAAGCUUCCUCUGAUGUCAAAUCAGGAUGUAUUACCGAAACUGAUUCCAAGGACAUCCUGGAAUUCUCGGGUGCCAA`, “RBNS enrichment (R)” read 0.25.
For `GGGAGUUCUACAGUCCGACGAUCCUCUGUGCCCAAGCUGACACAGAACCCCAAAUGUGUGGGAGGAAUGGACCCCAGAGCUUUGGGCCCAGGGUGAGGGCAAGGGGAACUCUUCAGCCCCUUGCCUAGAGAGAUGGAAUUCUCGGGUGCCAA`, “RBNS enrichment (R)” read 0.667.
Under “RBNS enrichment (R)”, `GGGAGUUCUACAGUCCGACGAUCGGCUAAUUUUGUAUUUUUAGUAGAGACGGGGUUUCUCCAUGUUGGUAAGGCUGAUCUCAAACUCCCAACCUCAGGUGAUCUGCCUGCCUCGGCCUCCCAAAGUGCUGGGAUGGAAUUCUCGGGUGCCAA` is recorded as 1.18.
Under “RBNS enrichment (R)”, `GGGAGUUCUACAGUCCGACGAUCGUAGUUUGUAUAGCCUCAACAACAAUUUUAAAUAAGAUGGAGAAUAAAUUAUUGAGGGGACUAGGCUAUAUGCAUUUGCCUUCAUCCACCCAUGUUUAUUAAGAAUCAUUUGGAAUUCUCGGGUGCCAA` is recorded as 1.09.

Excerpt of the above (series 2):
`R5A L7A` — result for “normalised enrichment score”: 0.772.
`F4E` — result for “normalised enrichment score”: 0.215.
Under “normalised enrichment score”, `R8A` is recorded as -0.543.
For `D11E`, “normalised enrichment score” read 0.235.
`T3S` — result for “normalised enrichment score”: -0.793.
Under “normalised enrichment score”, `T12Y` is recorded as 0.478.
